Assay results from different studies.
Each line is one published result; not all experiments were run side by side. “And” joins repeats or separate records; there may be more than shown. Numbers after ± are the reported error.

Cn1c(C(=O)Nc2ccc(Cl)cc2)cc2c(=O)n3ccccc3nc21 — IC50 (Vero E6; MTT): 193 ± 14.7 µM
Nc1ccn(C[C@@H](CO)OCP(=O)(O)O)c(=O)n1 — minimum cytotoxic concentration (HEL fibroblasts; cell morphology, microscopy): 317 µM
O=C(CCCc1ccc2c(c1)CCCC2)NC(=O)N[C@@H]1O[C@H](CO)[C@@H](O)[C@H](O)[C@H]1O — minimal cytotoxic concentration (HEL fibroblasts; cell morphology; 3 days): > 100 µM
C[C@@H]1CCO[C@H]2Cn3cc(C(=O)NCc4ccc(F)cc4F)c(=O)c(O)c3C(=O)N12 — intracellular accumulation (hCMEC/D3; 5 µM, 1 h, 37 °C): 74.8 ± 9.84 pmol/mg protein
CC[C@H](C)[C@H](NC(=O)[C@H](C)NC(=O)[C@H](CCCNC(=N)N)NC(=O)[C@H](CCCNC(=N)N)NC(=O)[C@H](CC(N)=O)NC(=O)[C@H](CCCNC(=N)N)NC(=O)[C@H](CCCNC(=N)N)NC(=O)[C@H](C)NC(=O)[C@@H](NC(=O)[C@H](CO)NC(=O)[C@@H](NC(=O)[C@@H](NC(=O)[C@H](CS)NC(=O)[C@H](CCCCN)NC(=O)[C@@H](N)CCCNC(=N)N)C(C)C)[C@@H](C)CC)C(C)C)C(=O)N[C@@H](CCCCN)C(=O)N[C@H](C(=O)N[C@@H](CC(C)C)C(=O)N[C@@H](CS)C(=O)N[C@@H](CC(N)=O)C(=O)O)[C@@H](C)CC — hemolysis (human red blood cells; 128 µg/mL, 3 h, 37 °C; reference: Triton X-100): -0.03%
Cl.O=C(CNS(=O)(=O)NCc1cccc(Oc2ccccc2)c1)N1CCN(Cc2ccccc2)CC1 — TD50 (HG23 norovirus replicon cells; 48 h): 120 ± 14 µM
CN(C)N=O — ATP level (HepaRG 3D spheroids; cell viability; concentration not given, 24 h; reference: vehicle): 98.8%
CCCCC(CC)COC(=O)c1ccccc1C(=O)O (stereo not shown) — mitochondrial membrane permeability (TK6; 196 µM, 48 h, together with: reduced glutathione 500 µM): decreased
C[C@H](Cn1cnc2c(N)ncnc21)OCP(=O)(O)O — intracellular concentration (hCMEC/D3; 5 µM, 1 h, in antiretroviral combination): 0.32 ± 0.07 ng/mL
Nc1nc(O)c2ncn(COC(CO)CO)c2n1 — minimum cytotoxic concentration (HEL embryonic lung fibroblasts; cell morphology, microscopy): 350 µM
C=C(C[C@H](N)C(=O)O)C(=O)N1CCCCC1 — concentration increasing cytotoxicity (MDA-MB-231; 72 h; reference: vehicle): 10 µM
CCCCN(CCCC)N=O — remaining compound (TK6; UPLC-MS/MS; medium with Aroclor-induced rat or hamster S9; 12.5 µM, 24 h; reference: medium without cells): < 0.5%
Clc1ccc(-c2cc(Cl)c(Cl)c(Cl)c2)cc1Cl — EC50 (primary mouse hepatocytes; inducer, measured: Cyp1a1 mRNA; C57BL/6; 24 h): 0.0123 ± 0.0079 µM
CC(C)[C@@H]1NC(=O)[C@H](C)OC(=O)[C@@H](C(C)C)NC(=O)[C@@H](C(C)C)OC(=O)[C@H](C(C)C)NC(=O)[C@H](C)OC(=O)[C@@H](C(C)C)NC(=O)[C@@H](C(C)C)OC(=O)[C@H](C(C)C)NC(=O)[C@H](C)OC(=O)[C@@H](C(C)C)NC(=O)[C@@H](C(C)C)OC1=O — point of departure (human iPSC-derived cardiomyocytes; mitochondrial membrane potential, measured: JC-10 granules; 30 min): < 30 µM
CCCCN(CCCC)N=O — relative survival (HepaRG, 2D culture; flow cytometry micronucleus; highest tested concentration, 24 h, plus 3 days hEGF; reference: vehicle): 66.6%
N=C(N)NCCC[C@H](NC(=O)CCC(=O)OC[N+]1(c2cc(=O)c3cccc(-c4ccccc4)c3o2)CCOCC1)C(=O)NCC(=O)N[C@@H](CC(=O)O)C(=O)N[C@@H](CO)C(=O)[O-] — IC50 (RPMI-8226 cells; cell viability; 48 h): 11.9 µM
CCCN1C(N)=NC(N)=NC12CCN(S(=O)(=O)CCC)CC2 — minimum cytotoxic concentration (MDCK; microscopy, altered cell morphology): > 100 µM
CCOP(=S)(OCC)Oc1nc(Cl)c(Cl)cc1Cl — point of departure (human iPSC-derived cardiomyocytes; mitochondrial membrane potential, measured: JC-10 granules; 30 min): < 30 µM
COc1cc2c(c(OC)c1OC)-c1c(cc3c(c1OC)OCO3)CC(C)C(C)C2 (stereo not shown) — LD50 (HepG2; LDH release; 48 h, together with: glutathione 5 mM): 200 µM and > 200 µM
